Results from different studies.
Numbered parts are unrelated; each lists some results of a single study.

Sample 1
Target: Prothrombin, mature alpha-thrombin (F2, Homo sapiens, UniProt P00734)
Method: aptamer microarray, sandwich
Molecule type: DNA with 2'F-ANA
Sample: in vitro
Tested at: 200 nM
Notes: whole 15-mer aptamer, many near background
Added: Cy3 exosite-II aptamer, 400 nM
Reading: higher = stronger binding
Strand: GGTTGGTGTGGTTGG
Modification | mean fluorescence intensity
2'F-ANA at 3 6 7 8 10 11 12 | 604 a.u.
2'F-ANA at 1 4 5 9 10 13 14 15 | 47 a.u.
2'F-ANA at 2 4 5 6 9 10 13 14 15 | 65.5 a.u.
2'F-ANA at 1 2 5 7 10 15 | 45.5 a.u.
2'F-ANA at 4 6 7 8 9 14 | 175 a.u.
2'F-ANA at 1 3 5 7 9 12 13 15 | 81 a.u.
2'F-ANA at 1 2 3 6 7 8 9 10 11 15 | 67.3 a.u.
2'F-ANA at 5 7 8 11 13 14 15 | 47.9 a.u.
2'F-ANA at 1 4 6 8 9 15 | 133 a.u.
2'F-ANA at 1 2 3 5 10 14 | 47.6 a.u.
2'F-ANA at 1 2 3 4 5 6 8 9 10 14 15 | 54.2 a.u.
2'F-ANA at 5 7 11 13 15 | 55.4 a.u.
2'F-ANA at 1 6 7 8 9 10 12 | 73 a.u.
2'F-ANA at 2 3 4 5 10 13 | 50.4 a.u.
2'F-ANA at 1 2 5 6 7 9 10 11 14 15 | 51.1 a.u.
2'F-ANA at 4 5 7 10 12 14 15 | 44.6 a.u.
2'F-ANA at 1 9 11 | 160 a.u.
2'F-ANA at 1 2 7 9 10 11 15 | 175 a.u.
2'F-ANA at 1 2 4 5 6 9 10 13 15 | 48.9 a.u.
2'F-ANA at 4 5 6 7 8 11 13 14 | 47.5 a.u.
2'F-ANA at 4 6 7 8 9 10 11 15 | 74.7 a.u.
2'F-ANA at 3 4 7 8 12 13 14 15 | 416 a.u.
2'F-ANA at 1 3 6 8 13 | 239 a.u.
2'F-ANA at 2 5 6 8 9 11 14 | 53.3 a.u.

Sample 2
Target: Histone acetyltransferase KAT6A, winged helix 1, GST fusion (KAT6A, Homo sapiens, UniProt Q92794, residues 1-85)
Method: protein binding microarray
Molecule type: double-stranded DNA, one strand shown
Sample: in vitro
Tested at: not given
Notes: 8-mer, flanks averaged, mean of 2 arrays, mostly near background
Reference: not given
Reading: higher = stronger binding
Construct (chain): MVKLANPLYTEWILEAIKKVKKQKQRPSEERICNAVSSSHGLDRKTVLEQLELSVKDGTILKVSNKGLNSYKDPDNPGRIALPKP
Strand | E-score
ACAGGCGG | 0.174
CAATCATC | -0.17
CATGCTGA | -0.223
AGCGGTAA | 0.313
ACTCGGGA | 0.133
AATACGCT | 0.137
CTCTACAG | -0.148
CATCGCAG | 0.0194
CAACTACG | 0.00479
ACTGCTTC | 0.0693
CCACGTAA | -0.121
ATCGGTTC | 0.123
CCCTGATC | -0.0604
ATGGGGCG | -0.0767
AGACACGG | 0.19
CCATTCAC | -0.0769

Sample 3
Target: Phosphate system positive regulatory protein PHO4, full length, GST-tagged (PHO4, Saccharomyces cerevisiae, UniProt P07270, residues 1-312)
Method: competition protein-binding microarray
Molecule type: double-stranded DNA, one strand shown
Sample: in vitro
Tested at: 2 µM
Notes: whole 60-bp probe, lowest competitor level
Added: Cbf1 competitor, 0.05 µM
Reading: higher = stronger binding
Shared flanks, not repeated: … GTCTTGATTCGCTTGACGCTGCTG
Construct (chain): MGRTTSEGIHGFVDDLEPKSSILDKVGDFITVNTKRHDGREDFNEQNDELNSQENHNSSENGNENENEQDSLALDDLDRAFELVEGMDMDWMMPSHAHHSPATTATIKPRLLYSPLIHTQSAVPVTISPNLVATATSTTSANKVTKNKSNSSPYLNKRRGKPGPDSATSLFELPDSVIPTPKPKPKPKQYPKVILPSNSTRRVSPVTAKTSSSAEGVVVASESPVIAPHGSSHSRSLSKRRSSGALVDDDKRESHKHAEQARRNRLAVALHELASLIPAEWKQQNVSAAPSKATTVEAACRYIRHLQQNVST
Strand | fluorescence intensity [a.u.]
CTTCTGTAAATTTAGCACGTGTTTTGACGCGCCCCG | 17300
AAAGCGGTAATTTGGTATGTGGGTGCAGATATCTAT | 5200
CTTTCCCGATCTTGTCACTACACTTTAGCACATTTG | 3860
AACTGCCAATACCGTCACGTTATGGAAGGTGAAGTG | 7670
AAAGCGGTAATTTGTGTTGTGGGTGCAGATATCTAT | 4360
CGGCTGGGTCGGGCCCACGTGGACCCGGCGGCAAGC | 17700
CGGGGTTAAGTTTGTTTTGTGGGTGGCTTGCAGCAG | 4290
GATATCGTTCAAATGCTCGTGCTTTAACCTTAATAC | 11500
AAAAATGTATACAGATCAGTCTGTATATAAATCATG | 3760
AACTGTGAATGGGGATGCGTGACGGGTTCGTCTCTG | 7080
CTTCTGTAAATTTGGGTAGTGGGTGGACGCGCCCCG | 4820
CATGTATCTTATTGTTTCGTGATGGTGTAGATCCGG | 6570
CGCTATGCCATCAGTGATGTGATGAGCAATGCCGGA | 3390
GCCCTGTTGGAGGCCATCGTGGTCGCCAAGAAAGCA | 8090
AGCGTTCAATGGCGTCATGCGGCGTTGCGAAATTTC | 4940
GTCCGATGTCCCCATCACGTTCATCACAACATTCCT | 11100
TTTTACAGCTGCAATCAGGTGGATTCGTTTCTTCGA | 3930
AAATTACTAAGTTTTCACGTGACCTACCCCGTATGA | 11600
CGGGGTTAAGTTTTTCACGTGAGCTGCTTGCAGCAG | 11300
TGCGCAACAACTTGTCACGGAACTTTATGTCTAGAA | 3350

Sample 4
Target: Ras GTPase-activating protein-binding protein 1, C-terminal RGG region (G3BP1, Homo sapiens, UniProt Q13283)
Chain of UniProt Q13283 (whole entry, looked up): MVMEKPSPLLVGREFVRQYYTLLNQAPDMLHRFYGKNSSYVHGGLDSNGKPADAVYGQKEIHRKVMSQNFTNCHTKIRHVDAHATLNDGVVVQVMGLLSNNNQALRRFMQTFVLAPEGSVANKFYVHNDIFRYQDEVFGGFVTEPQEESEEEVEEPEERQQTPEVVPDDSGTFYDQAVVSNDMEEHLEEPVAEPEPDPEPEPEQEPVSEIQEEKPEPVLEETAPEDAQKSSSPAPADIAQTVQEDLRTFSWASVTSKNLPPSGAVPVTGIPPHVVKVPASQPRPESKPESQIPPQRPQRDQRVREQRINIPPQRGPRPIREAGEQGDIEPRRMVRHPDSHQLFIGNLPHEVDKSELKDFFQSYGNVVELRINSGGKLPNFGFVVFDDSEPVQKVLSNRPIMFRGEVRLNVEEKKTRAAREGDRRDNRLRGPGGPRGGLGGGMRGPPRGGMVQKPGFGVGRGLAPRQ
Method: RNA Bind-n-Seq
Molecule type: RNA
Sample: in vitro
Tested at: 1 µM
Notes: whole 134-nt RNA, ends assumed
Added: 150 mM KCl
Reference: input library
Reading: higher = stronger binding
Shared flanks, not repeated: GGGAGUUCUACAGUCCGACGAUC … UGGAAUUCUCGGGUGUCAAGG
Strand | log2 enrichment
CUCAAGUCCUGUGCUACACAUCGUAUGUACCGAAUCGGGUUUGGUUUGGUUUGGAAAGUAUUAUGUUACGCCGUUCGGAUCUGCACUUCC | -1.09
UCCUGUGCUACACAUCGUAUGUACCGAAUCGGGGAAAAAAGGGAAAAAAGGAAAAAAGGAAAGUAUUAUGUUACGCCGUUCGGAUCUGCA | -1.15
UGGGAGGUGGAUUUUGUUUAUUUUUUUAGCUCAUUUCCAGGGGUGCGAAUUUUUUUUUAAUAUGUGUCAUGAAUAAAGUUGUUUUUGAAA | 2.57
CCUGUGCUACACAUCGUAUGUACCGAAUCGGGGAAAAAAGGAAAAAAGGGGAAAAAAGGGAAAGUAUUAUGUUACGCCGUUCGGAUCUGC | -1.72
UUCCUCAAGUCCUGUGCUACACAUCGUAUGUACCGAAUCGGGUGGUGGUGGAAAGUAUUAUGUUACGCCGUUCGGAUCUGCACUUCCAGC | -0.52
AGUCCUGUGCUACACAUCGUAUGUACCGAAUCGGGGCCCCCGGCCCCCGGGCCCCCGGAAAGUAUUAUGUUACGCCGUUCGGAUCUGCAC | -1.81
UGGGAGGUGGAUUUUGUUUAUUUUCUUAGCUCAUUUCCAGGGGUGGGAAUUUUUUUUUAAUAUGUGUCAUGAAUAAAGUUGUUUUUGAAA | 3.4
CACAGACAACACGCACCCACACAGACACAGAGGGAAGGGGGUGGGAUGGGGACAGGGUGCACAGCAGGGCGGGGUAGGACCCCAGCCCCU | 0.814

Sample 5
Target: RING finger protein unkempt homolog, zinc fingers 1-6, GST-SBP tag (UNK, Homo sapiens, UniProt Q9C0B0, residues 30-357)
Method: RNA Bind-n-Seq
Molecule type: RNA
Sample: in vitro
Tested at: not given
Notes: RNA with constant flanks, human and mouse sites, ends assumed
Reference: input RNA pool
Reading: higher = stronger binding
Shared flanks, not repeated: GGGAGUUCUACAGUCCGACGAUC … CAACAGAGGAUUGAGCAUCA
Residues (chain): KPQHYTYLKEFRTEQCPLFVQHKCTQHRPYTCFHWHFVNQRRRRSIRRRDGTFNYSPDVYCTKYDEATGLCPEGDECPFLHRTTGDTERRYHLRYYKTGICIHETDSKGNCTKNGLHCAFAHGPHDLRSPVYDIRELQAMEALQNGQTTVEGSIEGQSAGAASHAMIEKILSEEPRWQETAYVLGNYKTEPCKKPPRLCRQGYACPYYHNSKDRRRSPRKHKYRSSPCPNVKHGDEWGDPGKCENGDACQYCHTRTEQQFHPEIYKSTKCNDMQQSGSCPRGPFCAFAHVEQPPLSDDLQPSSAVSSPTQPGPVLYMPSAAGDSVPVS
Strand | bound/input enrichment [ratio]
GUUUUUAUCAUUUUAAGAACAUUUCAUAAACAGAAUUGUACUUUUAAAAACAAUUUUUUAUUUAGCAUUCUACCUUUUGAAAUGUACUGUCUUACUCCAAAUAAUAUCCUGAGAUCUAUC | 0.689
CCAAGCCUUAUGCCUUUGAUCGUGUGUUCCAGUCAAGCACAUCUCAAGAGCAAGUAUACAACGACUGUGCAAAAAAGAUUGUUAAAGAUGUUCUUGAGGGCUAUAAUGGAACAAUAUUUG | 0.0839
AGUACUGCCCGUGCAAAUCCCACAACACUGAAUGCAAAGUAGCAAUUUCCAUAGUCACAGUUAGGUAGCUUUAGGGCAAUAUUGCCAUGGUUUUACUCAUGUGCAGGUUUUGAAAAUGUA | 46.7
UACGACUACUCGCCCUAUGGCUAUUACGGCUACGGCCCCGGCUACGACUACAGUCAGGGUAGUACAAACUACGGCAAGAGCCAGCGACGUGGUGGCCAUCAGAAUAACUACAAGCCAUAC | 0.146
GAUGUGGCAGCAAGAAACUCAAAUGUGCAUUUGUAACUGAAUUGAACACUUGUCAUGCUGUAGAUGCCAGCCCAUCAAUAGUAGAGCUUAUGAGACUCAUUUAAACUGUCUUUGGUUUAA | 0.202
CUGAAGCAGCCCCGAGAAUGCCGGACCACAGAGUCUGGGGUGCCAGAGGAUGGACAGUUGGAUGCCCAGGUGAGGGCUGCCGUGGAGAUGUACUCAGAGGACUGGGUCAUUGUACGCAGA | 0.165
GGCAGCAAAAGGCACAGUAGGUCAAGAAGCAGGUCUCGAUCCCGGACCAGAAGUUCCUCUAGGUCUCGUAGCCGAUCCCGUUCCCGUAGUCGCAAAUCUUACAGCCGGUCAAGAAGCAGG | 1.79
GAUGUAACUUAAGUGACUGUGAUCCUUUGUCUACCUUUCAGGAUCCCAUCAAAUGGGAUUUAGUUGCUAGAAAGAUACUUGACAGUCUGAAGGCACAGGUGAUAAGAUUUUGUUCUCUGU | 0.194
CUUACUCAUCAUUUAAAAACUAUAUUUACAGAAGAUGUUUGGUUGCUGGGGGGGCUUUUUUAGGUUUUGGGGCAUUUGUUUUUUGUAAAUAAGAUGAUUAUGCUUUGUGGCUAUCCAUCA | 1.98
GGGGACUCUAGACACCAGGGUAUGGGCUGAGGACUCCUAAUAUUGCCAAAGGAUUCAACUUAUUUAACAACCCCUAUUAUCCCCGCCCCCCUGUCCCUUAAAAGAGACGAAUGGGGCGGG | 0.177
ACAUUUUCAGACUGUCUCAUGGUGGUGCAGUUCUUACGAAACUUUGGUAAAGUUUUGGGCUUUGAUGUGAAUAUUGAUGUUCCAAACCUCAGUGUUCUUCAAGAGGGAUUGCUAAAUAUA | 0.559

Repeated from above (sample 1):
Modification | mean fluorescence intensity
2'F-ANA at 4 5 6 7 8 11 13 14 | 47.5 a.u.
2'F-ANA at 1 6 7 8 9 10 12 | 73 a.u.
2'F-ANA at 5 7 8 11 13 14 15 | 47.9 a.u.
2'F-ANA at 1 4 5 9 10 13 14 15 | 47 a.u.
2'F-ANA at 3 6 7 8 10 11 12 | 604 a.u.
2'F-ANA at 1 2 5 6 7 9 10 11 14 15 | 51.1 a.u.
2'F-ANA at 1 3 5 7 9 12 13 15 | 81 a.u.
2'F-ANA at 3 4 7 8 12 13 14 15 | 416 a.u.
2'F-ANA at 4 5 7 10 12 14 15 | 44.6 a.u.
